Measurements pooled from the literature.
Protocols differ between the studies behind these lines. ± marks the error that the study gave.

Compound	tested on	test	system	conditions	how to read	measurement	value
COc1cccc(-c2n[nH]c(SCc3ccccn3)n2)c1OC	Salmonella typhimurium	Ames test, preincubation	TA100	0.063 mg/plate, with rat liver S9	–	revertant colonies per plate	143
OC(CCN1CC=C(c2ccc(F)cc2)CC1)c1ccc(F)c2ccccc12 (centres unmarked)	Salmonella typhimurium	SOS/umu test	TA1535/pSK1002	0.001 mg/mL, 4 h, without S9 activation	–	survival	103%
CCc1ccccc1N1CC(c2nc3ccccc3n2CCCCOc2ccccc2OC)CC1=O (centres unmarked)	Vero-E6	CellTiter-Glo ATP	–	concentration not given, 72 h, first round 5-point	relative to: DMSO 0%, hyamine -100%, more negative, more toxic	cytotoxicity efficacy	-10.6%
CC(C)N(C)N=O	Salmonella typhimurium	mutagenicity, Ames plate incorporation	TA100	500 µg/plate, 3 d, without S9, methanol	–	revertant colonies per plate	169 ± 9
O=[N+]([O-])c1ccc(N2CCN(CCC(O)c3ccc(F)cc3)CC2)c(C(F)(F)F)c1 (centres unmarked)	Salmonella typhimurium	genotoxicity, SOS/umu test	TA1535/pSK1002	0.016 mg/mL, 4 h, without S9, lower range	–	induction factor	0.9
CC(=O)N1CCC(C(=O)N2CCN3C(=O)c4cc(-c5ccccc5)ccc4NC(=O)C3C2)CC1 (centres unmarked)	Salmonella typhimurium	–	TA100	500 µg/plate, without S9	–	revertants per plate	104
Cc1cc(C(=O)NC(C)(C)COc2cccc3c2C(N)=NS(=O)(=O)N3)cc(C)n1	Salmonella typhimurium	Ames test, initial	TA1535	1.50 µg/plate	relative to: solvent control	revertant ratio	1.3
O=[N+]([O-])c1ccc(NC2CCNCC2)c(C(F)(F)F)c1	Salmonella typhimurium	SOS/umu test	TA1535/pSK1002	0.002 mg/mL, 4 h, without S9, full range	–	survival	133%
CN(CC(C)(C)C)N=O	Salmonella typhimurium	mutagenicity, Ames plate incorporation	TA1537	500 µg/plate, without S9, methanol	–	revertant colonies per plate	12 ± 5
N#C[C@@]1(n2ccc(N)nc2=O)O[C@H](CO)[C@@H](O)[C@H]1O	Salmonella typhimurium	–	TA100	600 nM, without S9	relative to: control	viability	106%
CC(C)N(N=O)C(C)C	Salmonella typhimurium	mutagenicity, Ames plate incorporation	TA1537	1500 µg/plate, without S9, methanol	–	revertant colonies per plate	17.3 ± 4
O=[N+]([O-])c1ccc(N2CCC(NCCC(O)c3ccc(F)c4ccccc34)CC2)c(C(F)(F)F)c1 (centres unmarked)	Salmonella typhimurium	genotoxicity, SOS/umu test	TA1535/pSK1002	0.002 mg/mL, 4 h, with S9, lower range	–	induction factor	1
CNC(=O)c1c(N(C)N=O)ncn1C	Salmonella typhimurium	plate incorporation	TA100, water	50 µg/plate, without S9	–	revertant colonies per plate	196 ± 6
CC(Nc1nc(N2CCNCC2C)nc2ccccc12)c1ccccc1 (centres unmarked)	Vero-E6	CellTiter-Glo ATP	–	72 h, second round 5-point	relative to: DMSO 0%, hyamine -100%, more negative, more toxic	maximum response	-9.08%

Excerpt of the above:
Compound	tested on	test	system	conditions	how to read	measurement	value
CC(C)N(C)N=O	Salmonella typhimurium	mutagenicity, Ames plate incorporation	TA100	500 µg/plate, 3 d, without S9, methanol	–	revertant colonies per plate	169 ± 9
O=[N+]([O-])c1ccc(N2CCN(CCC(O)c3ccc(F)cc3)CC2)c(C(F)(F)F)c1 (centres unmarked)	Salmonella typhimurium	genotoxicity, SOS/umu test	TA1535/pSK1002	0.016 mg/mL, 4 h, without S9, lower range	–	induction factor	0.9
